Measured values from different studies.
Compare with care: the assays were run in different laboratories. “And” joins repeats or separate records; there may be more than shown. Numbers after ± are the reported error. Converted amounts (≈) assume the structure as drawn.

The inhibition of `COC(=O)c1cc2c(=O)n3ccccc3nc2n1Cc1ccccc1` is reported as 11.8% (Severe acute respiratory syndrome coronavirus 2; viral replication; Vero; 1 nM).
For `COC(=O)c1ncn(C2OC(COC(=O)c3ccccc3)C(OC(=O)c3ccccc3)C2OC(=O)c2ccccc2)c1C(=O)OC` (stereo not drawn), the IC50 was 23 µg/mL (Severe acute respiratory syndrome coronavirus; viral replication; Vero; 48 h).
The MIC of `[O-][N+]1=C(c2ccsc2)C2=NCCCN2c2ccccc21` is reported as 2 to 8 µg/mL (Clostridium perfringens).
`O=[N+]([O-])c1ccc(-n2nc(-c3ccc(F)cc3)cc2-c2ccc(F)cc2)c([N+](=O)[O-])c1` — result for “viral titre reduction”: ~67% (Japanese encephalitis virus; plaque; SA14-14-2; 1 µM, 72 h).
With `C#CCN(Cc1ccc2nc(N)nc(N)c2c1)c1ccc(C(=O)N[C@@H](CCC(=O)O)C(=O)O)cc1` the MIC was 4.8 µM (Mycobacterium tuberculosis; pptH knockout).
For `COc1ccc(C2=[N+]([O-])c3ccccc3N3CCCN=C23)cc1`, the MIC50 was 16 µg/mL (≈ 52.1 µM) (Clostridium perfringens; microbial growth).
`COC(=O)[C@]1(C)CCC[C@]2(C)[C@H]3C[C@H]4C(C(C)C)=C[C@]3(CC[C@H]21)[C@H]1[C@@H]4[C@@H](OCC#CCN2CCCC2)CC[C@@H]1O`: infected cells “decreased” (SARS-CoV-2 pseudovirus; BHK-21-hACE2; 20 µM).
With `CC(C)CC(C(=O)N1CC2(CC1C#N)C(=O)Nc1ccccc12)N(C)C(=O)c1cc2c(F)cc(F)c(F)c2[nH]1` (stereo not drawn) the inhibition was 97% (SARS-CoV-2; viral replication, infectious virus; Vero E6; 0.333 µM).
`CC(=O)OCCOCn1cnc(C#N)c1C#N` has an IC90 of 47 µg/mL (≈ 201 µM) (Mammarenavirus lassaense; viral replication; Vero; 48 h).
`O=[N+]([O-])c1ccc(-n2nc(-c3ccccc3)cc2-c2ccc(F)cc2)c([N+](=O)[O-])c1`: “viral RNA reduction” ~33% (Japanese encephalitis virus; SA14-14-2, BALB/c mice, brain; ip, 100 mg/kg/day; relative to: untreated).
`Cc1ccc(N2CC(N3CCC(C)(O)CC3)C2)cc1C(=O)NC1(c2ccc3c4c(cccc24)C(=O)N3C)CC1` gave an inhibition of 55% (SARS-CoV-2; viral replication; Vero C1008, XBB.1; 0.05144 µM).
For `[O-][N+]1=C(c2ccc(Cl)cc2)C2=NCCCCN2c2ccccc21`, the MIC90 was 32 µg/mL (≈ 98.2 µM) (Clostridium perfringens).
`CN1CCN(C(=O)N[C@@H](Cc2ccccc2)C(=O)N[C@H](/C=C/S(=O)(=O)c2ccccc2)CCc2ccccc2)CC1` gave an IC50 of 2.26 ± 0.1 nM (Tai Forest ebolavirus; viral entry; HEK-293T; pseudovirus).
`O=S(=O)(O)c1c2ccccc2c(-c2c3nc(c(-c4c5ccccc5c(S(=O)(=O)O)c5ccccc45)c4ccc([nH]4)c(-c4c5ccccc5c(S(=O)(=O)O)c5ccccc45)c4nc(c(-c5c6ccccc6c(S(=O)(=O)O)c6ccccc56)c5ccc2[nH]5)C=C4)C=C3)c2ccccc12` gave an inhibition of 81% (vaccinia virus; viral replication; CV-1, WR; 25 µg/mL, 16 h).
The MIC of `CC[C@@H](C)[C@@H](NC(=O)[C@@H](CCCCN)NC(=O)[C@@H](CCCCN)NC(=O)[C@@H](CC(C)C)NC(=O)[C@@H](Cc1c[nH]c2ccccc12)NC(=O)CN)C(=O)NCC(=O)N[C@H](CCCCN)C(=O)N[C@H](CCCCN)C(=O)N[C@@H](C(=O)N[C@H](CCC(=O)O)C(=O)N[C@H](CCCNC(=N)N)C(=O)N[C@@H](C(=O)NCC(=O)N[C@H](CCC(N)=O)C(=O)N[C@H](Cc1c[nH]cn1)C(=O)N[C@@H](C(=O)N[C@H](CCCNC(=N)N)C(=O)N[C@H](CC(=O)O)C(=O)N[C@H](C)C(=O)N[C@@H](C(=O)N[C@@H](C(=O)N[C@H](CCC(N)=O)C(=O)N[C@@H](C(=O)N[C@@H](C(=O)NCC(=O)N[C@@H](C(=O)N[C@H](C)C(=O)N[C@H](CCC(N)=O)C(=O)N[C@H](CCC(N)=O)C(=O)N[C@H](C)C(=O)N[C@H](C)C(=O)N[C@H](CC(N)=O)C(=O)N[C@@H](C(=O)N[C@H](C)C(=O)N[C@H](C)C(=O)N[C@@H](C(=O)N[C@H](CC(C)C)C(=O)N[C@H](CCCCN)C(N)=O)[C@H](C)O)C(C)C)C(C)C)[C@H](C)CC)[C@H](C)O)[C@H](C)CC)[C@H](C)O)[C@H](C)O)C(C)C)[C@H](C)CC` is reported as 128 to 256 µg/mL (Escherichia coli, Acinetobacter baumannii; RKI 131/08, ATCC 19606, RKI 19/09).
The MIC50 of `COc1ccc(C2=[N+]([O-])c3ccccc3N3CCN=C23)cc1` is reported as 0.5 µg/mL (≈ 1.7 µM) (Clostridium perfringens; microbial growth).
`CCOP(=O)(CCOCn1cnc(C#N)c1C#N)OCC` gave an IC90 of 27 µg/mL (≈ 86.5 µM) (Mammarenavirus lassaense; viral replication; Vero; 48 h).
The infection of `Cc1ccc(NS(=O)(=O)c2c(C(=O)N3CCCCCC3)c(C)n(C)c2C)c(Cl)c1` is reported as 78.3% and 82% and 81.4% (Vaccinia virus; viral infection; HaCaT; 0.137 µM, 36 h; relative to: untreated).
Under mRNA level, `O=S(=O)(Nc1ccccc1)c1ccc(NC(=S)Nc2ccccc2)cc1` is recorded as “no effect” (Escherichia coli; measured: ler, stx2a; EHEC O157:H7; concentration not given).
`N#Cc1ncn(C2OC(CO)C(O)C2O)c1C#N` (stereo not drawn) gave an IC50 of 46 µg/mL (Severe acute respiratory syndrome coronavirus; viral replication; Vero; 48 h).
Under antiviral activity, `CCC(NC(=O)NNS(=O)(=O)c1ccc(C)cc1)(C(F)(F)F)C(F)(F)F` is recorded as “inactive” (Severe acute respiratory syndrome coronavirus; Vero; concentration not given).

A few entries again:
`COC(=O)[C@]1(C)CCC[C@]2(C)[C@H]3C[C@H]4C(C(C)C)=C[C@]3(CC[C@H]21)[C@H]1[C@@H]4[C@@H](OCC#CCN2CCCC2)CC[C@@H]1O`: infected cells “decreased” (SARS-CoV-2 pseudovirus; BHK-21-hACE2; 20 µM).
The inhibition of `COC(=O)c1cc2c(=O)n3ccccc3nc2n1Cc1ccccc1` is reported as 11.8% (Severe acute respiratory syndrome coronavirus 2; viral replication; Vero; 1 nM).
Under antiviral activity, `CCC(NC(=O)NNS(=O)(=O)c1ccc(C)cc1)(C(F)(F)F)C(F)(F)F` is recorded as “inactive” (Severe acute respiratory syndrome coronavirus; Vero; concentration not given).
